Measured values gathered from unrelated publications.
Each line is one published result; not all experiments were run side by side. ± gives the spread as reported.
Ectonucleoside triphosphate diphosphohydrolase 1: Ectonucleoside triphosphate diphosphohydrolase 1 (Homo sapiens, UniProt P49961)
Chain of UniProt P49961 (whole entry, looked up): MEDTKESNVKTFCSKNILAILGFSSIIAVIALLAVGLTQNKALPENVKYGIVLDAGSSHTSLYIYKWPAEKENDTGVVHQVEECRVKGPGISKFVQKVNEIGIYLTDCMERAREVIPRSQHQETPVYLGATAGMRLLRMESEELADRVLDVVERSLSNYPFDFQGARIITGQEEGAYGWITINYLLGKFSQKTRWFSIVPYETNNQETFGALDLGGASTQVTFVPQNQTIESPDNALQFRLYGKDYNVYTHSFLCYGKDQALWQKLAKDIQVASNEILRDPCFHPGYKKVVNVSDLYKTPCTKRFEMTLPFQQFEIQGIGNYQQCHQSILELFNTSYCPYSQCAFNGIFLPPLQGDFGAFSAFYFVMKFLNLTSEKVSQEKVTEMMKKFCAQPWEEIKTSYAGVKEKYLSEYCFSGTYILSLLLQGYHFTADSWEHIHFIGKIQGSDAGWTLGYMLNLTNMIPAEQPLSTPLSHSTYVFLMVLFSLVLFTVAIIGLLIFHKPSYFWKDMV
CDC25B: M-phase inducer phosphatase 2 (CDC25B, Homo sapiens, UniProt P30305)
Chain of UniProt P30305 (whole entry, looked up): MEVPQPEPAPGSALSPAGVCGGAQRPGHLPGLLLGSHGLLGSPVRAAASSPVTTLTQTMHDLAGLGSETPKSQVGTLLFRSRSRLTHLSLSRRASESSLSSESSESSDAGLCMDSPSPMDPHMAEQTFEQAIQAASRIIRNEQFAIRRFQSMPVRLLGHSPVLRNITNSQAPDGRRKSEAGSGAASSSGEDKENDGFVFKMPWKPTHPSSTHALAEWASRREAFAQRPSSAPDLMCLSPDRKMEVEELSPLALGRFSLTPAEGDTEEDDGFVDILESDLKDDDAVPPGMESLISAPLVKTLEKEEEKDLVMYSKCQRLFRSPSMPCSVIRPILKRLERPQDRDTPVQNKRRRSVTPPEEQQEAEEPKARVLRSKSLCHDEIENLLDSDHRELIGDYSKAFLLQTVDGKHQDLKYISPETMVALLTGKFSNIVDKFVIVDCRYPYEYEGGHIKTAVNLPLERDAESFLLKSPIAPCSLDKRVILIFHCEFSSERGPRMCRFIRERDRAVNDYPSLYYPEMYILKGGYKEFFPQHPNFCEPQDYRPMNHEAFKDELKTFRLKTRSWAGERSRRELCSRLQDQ
KDM1A: Lysine-specific histone demethylase 1A (KDM1A, Homo sapiens, UniProt O60341)
Chain of UniProt P35462 (whole entry, looked up): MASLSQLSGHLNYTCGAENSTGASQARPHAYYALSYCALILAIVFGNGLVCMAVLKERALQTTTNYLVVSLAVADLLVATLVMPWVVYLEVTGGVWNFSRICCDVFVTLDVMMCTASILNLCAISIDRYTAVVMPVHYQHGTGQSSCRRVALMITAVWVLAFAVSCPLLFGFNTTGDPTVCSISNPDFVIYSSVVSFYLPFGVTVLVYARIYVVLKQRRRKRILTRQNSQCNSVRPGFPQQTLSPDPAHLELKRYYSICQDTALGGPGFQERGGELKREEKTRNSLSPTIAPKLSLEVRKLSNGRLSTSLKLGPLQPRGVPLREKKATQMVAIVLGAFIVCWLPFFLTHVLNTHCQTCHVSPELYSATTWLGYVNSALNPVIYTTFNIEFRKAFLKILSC
Chain of UniProt P31749 (whole entry, looked up): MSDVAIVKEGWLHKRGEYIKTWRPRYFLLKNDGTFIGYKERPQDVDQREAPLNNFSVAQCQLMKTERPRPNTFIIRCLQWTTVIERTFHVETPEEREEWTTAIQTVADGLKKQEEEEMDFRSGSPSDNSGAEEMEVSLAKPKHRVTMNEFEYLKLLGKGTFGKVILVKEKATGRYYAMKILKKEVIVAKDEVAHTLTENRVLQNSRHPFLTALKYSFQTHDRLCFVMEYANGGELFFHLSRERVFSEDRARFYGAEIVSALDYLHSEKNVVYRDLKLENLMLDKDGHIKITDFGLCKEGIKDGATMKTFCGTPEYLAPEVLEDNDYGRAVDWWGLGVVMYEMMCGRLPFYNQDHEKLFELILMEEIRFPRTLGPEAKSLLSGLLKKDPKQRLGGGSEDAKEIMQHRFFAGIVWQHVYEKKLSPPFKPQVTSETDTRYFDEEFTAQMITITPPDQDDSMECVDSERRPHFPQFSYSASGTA
Chain of UniProt P19438 (whole entry, looked up): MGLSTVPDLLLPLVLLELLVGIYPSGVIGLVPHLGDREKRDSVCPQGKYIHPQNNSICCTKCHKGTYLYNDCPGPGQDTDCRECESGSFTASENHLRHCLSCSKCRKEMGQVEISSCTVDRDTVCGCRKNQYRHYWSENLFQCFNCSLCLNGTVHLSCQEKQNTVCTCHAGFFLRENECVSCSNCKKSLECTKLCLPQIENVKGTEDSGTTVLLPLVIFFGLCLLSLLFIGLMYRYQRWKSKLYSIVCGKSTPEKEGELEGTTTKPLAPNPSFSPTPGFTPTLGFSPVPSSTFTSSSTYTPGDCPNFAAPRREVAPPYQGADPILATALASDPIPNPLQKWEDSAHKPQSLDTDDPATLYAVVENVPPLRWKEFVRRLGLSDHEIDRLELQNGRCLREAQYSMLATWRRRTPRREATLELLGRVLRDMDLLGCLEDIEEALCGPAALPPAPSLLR
Chain of UniProt P00740 (whole entry, looked up): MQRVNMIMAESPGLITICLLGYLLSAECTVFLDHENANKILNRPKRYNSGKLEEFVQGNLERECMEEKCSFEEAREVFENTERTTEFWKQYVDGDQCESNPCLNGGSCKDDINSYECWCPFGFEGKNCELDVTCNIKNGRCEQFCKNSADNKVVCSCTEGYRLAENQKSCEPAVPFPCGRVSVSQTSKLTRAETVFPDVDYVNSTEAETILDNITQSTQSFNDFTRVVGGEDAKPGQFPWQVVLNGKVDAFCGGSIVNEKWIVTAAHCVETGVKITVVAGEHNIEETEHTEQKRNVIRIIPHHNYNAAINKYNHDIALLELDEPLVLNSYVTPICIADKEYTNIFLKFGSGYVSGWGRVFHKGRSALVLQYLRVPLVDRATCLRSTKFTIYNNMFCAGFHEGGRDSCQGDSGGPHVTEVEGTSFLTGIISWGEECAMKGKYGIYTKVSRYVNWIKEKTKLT
Chain of UniProt P23739 (whole entry, looked up): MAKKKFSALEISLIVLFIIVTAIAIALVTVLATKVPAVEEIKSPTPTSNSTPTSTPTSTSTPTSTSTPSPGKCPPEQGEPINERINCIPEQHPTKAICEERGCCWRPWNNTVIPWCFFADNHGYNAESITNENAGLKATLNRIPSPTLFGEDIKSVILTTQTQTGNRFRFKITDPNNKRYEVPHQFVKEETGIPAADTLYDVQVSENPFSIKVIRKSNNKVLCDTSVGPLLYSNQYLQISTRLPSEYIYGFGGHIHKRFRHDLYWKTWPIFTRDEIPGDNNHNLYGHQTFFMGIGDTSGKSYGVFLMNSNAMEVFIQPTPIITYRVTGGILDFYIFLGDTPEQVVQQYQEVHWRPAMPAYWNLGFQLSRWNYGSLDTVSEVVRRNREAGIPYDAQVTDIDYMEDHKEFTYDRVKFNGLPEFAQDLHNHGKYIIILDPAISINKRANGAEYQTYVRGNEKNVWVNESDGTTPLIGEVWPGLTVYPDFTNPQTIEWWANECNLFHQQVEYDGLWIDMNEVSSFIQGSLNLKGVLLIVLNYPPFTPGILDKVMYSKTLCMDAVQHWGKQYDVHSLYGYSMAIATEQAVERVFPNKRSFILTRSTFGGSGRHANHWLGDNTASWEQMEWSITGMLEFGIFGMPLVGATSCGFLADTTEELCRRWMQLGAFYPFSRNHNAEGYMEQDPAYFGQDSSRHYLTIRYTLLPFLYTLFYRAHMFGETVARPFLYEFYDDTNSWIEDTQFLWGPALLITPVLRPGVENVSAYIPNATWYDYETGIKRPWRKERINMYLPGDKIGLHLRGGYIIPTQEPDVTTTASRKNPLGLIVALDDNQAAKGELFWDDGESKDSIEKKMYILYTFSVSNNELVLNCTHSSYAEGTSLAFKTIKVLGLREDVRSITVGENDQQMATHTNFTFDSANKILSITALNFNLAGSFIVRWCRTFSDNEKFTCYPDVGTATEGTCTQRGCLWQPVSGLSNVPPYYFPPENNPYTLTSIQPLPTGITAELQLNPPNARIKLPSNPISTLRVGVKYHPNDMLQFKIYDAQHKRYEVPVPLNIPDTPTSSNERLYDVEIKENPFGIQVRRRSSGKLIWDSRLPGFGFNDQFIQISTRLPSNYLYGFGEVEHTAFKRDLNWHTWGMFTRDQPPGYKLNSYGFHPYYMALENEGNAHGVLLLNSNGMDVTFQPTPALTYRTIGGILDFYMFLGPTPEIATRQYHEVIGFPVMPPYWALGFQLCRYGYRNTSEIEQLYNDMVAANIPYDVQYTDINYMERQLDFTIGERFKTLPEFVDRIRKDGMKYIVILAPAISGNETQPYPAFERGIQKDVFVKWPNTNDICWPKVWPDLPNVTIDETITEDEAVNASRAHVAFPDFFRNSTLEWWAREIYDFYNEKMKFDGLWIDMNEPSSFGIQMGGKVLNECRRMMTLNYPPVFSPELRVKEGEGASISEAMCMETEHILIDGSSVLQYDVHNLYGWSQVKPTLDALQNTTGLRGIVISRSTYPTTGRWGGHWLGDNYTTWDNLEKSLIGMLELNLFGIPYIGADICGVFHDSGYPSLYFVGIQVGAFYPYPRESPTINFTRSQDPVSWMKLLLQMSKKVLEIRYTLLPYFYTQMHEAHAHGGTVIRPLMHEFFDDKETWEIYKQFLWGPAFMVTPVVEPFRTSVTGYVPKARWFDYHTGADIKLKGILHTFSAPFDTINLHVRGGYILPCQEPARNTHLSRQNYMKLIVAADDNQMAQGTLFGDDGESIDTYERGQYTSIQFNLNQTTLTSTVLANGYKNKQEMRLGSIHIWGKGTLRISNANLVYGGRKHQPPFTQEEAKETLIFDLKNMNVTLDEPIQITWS

| Structure (SMILES) | target | test | test system | conditions | inhibition |
| --- | --- | --- | --- | --- | --- |
| COc1ccc(NC(=O)c2cccc(S(=O)(=O)NC3CC3)c2)cc1 | Ectonucleoside triphosphate diphosphohydrolase 1 | enzyme activity, inhibitor, absorbance | – | 100 µM | 34% |
| O=C(Nc1ccccc1O)c1ccc(-c2ccc(Cl)cc2Cl)o1 | Heat shock protein 90, N-terminal domain (Plasmodium falciparum, UniProt Q8IC05) | ligand displacement, FP | – | 10 µM | 32% |
| COc1cccc(CSc2nc(N)c3c(F)c(C#N)c(F)c(Cl)c3n2)c1 | CDC25B | enzyme activity, inhibitor, fluorescence | – | 20 µg/mL | 2.11% |
| O=[N+]([O-])c1ccc(Cn2cc(Cn3cc(CO)nn3)nn2)cc1 | RAC-alpha serine/threonine-protein kinase, PH domain (AKT1, Homo sapiens, UniProt P31749) | PI(3,4,5)P3 binding, competitive SPR | – | 5 µM, PH domain 500 nM | 33 ± 3% |
| Cn1c2ccccc2c2cc(CNCCCn3ccnc3)ccc21 | DRD3 (Homo sapiens, UniProt P35462) | cell-free assay, inhibitor | – | 10 µM | 63.8% |
| CCCCSc1nc(N)c2c(F)c(C#N)c(F)c(Cl)c2n1 | CDC25B | enzyme activity, inhibitor, fluorescence | – | 20 µg/mL | 99.5% |
| OC[C@H]1O[C@@H](Sc2ccccc2)[C@H](O)[C@@H](O)[C@@H]1O | SLC5A2 (Homo sapiens, UniProt P31639) | transporter uptake, inhibitor, radiometric | CHO | 10 µM | 66.7% |
| O=C(O[C@H]1Cc2c(O)cc(O)cc2O[C@@H]1c1ccc(O)cc1)c1cc(O)c(O)c(O)c1 | Si (Rattus norvegicus, UniProt P23739) | enzyme activity, inhibitor | rat intestinal brush border vesicles | 10 µM | 88.1% |
| O=C1N[C@@H](CO)C[C@@H](O)c2ccccc21 (relative stereo) | PARP3 (Homo sapiens, UniProt Q9Y6F1) | enzyme activity, inhibitor | – | 10 µM | 51% |
| C#CCSc1nc(Sc2nnnn2-c2ccccc2)c2nnn(Cc3ccccc3Cl)c2n1 | KDM1A | enzyme activity, inhibitor, fluorescence | – | 1 µM | 95.8% |
| C=CCSc1nc(N)c2c(F)c(C#N)c(F)c(Cl)c2n1 | CDC25B | enzyme activity, inhibitor, fluorescence | – | 20 µg/mL | 98.8% |
| CC(C)CCC[C@@H](C)[C@H]1CC[C@H]2[C@@H]3CC=C4C[C@@H](OS(=O)(=O)O)CC[C@]4(C)[C@H]3CC[C@]12C | F9 (Homo sapiens, UniProt P00740) | inhibitor, chromogenic substrate | – | concentration not given | no inhibition |
| Cc1ccc(Nc2nc(SCc3cn(Cc4ccccc4Cl)nn3)nc(-c3ccc(C)cc3)c2C#N)cc1 | KDM1A | enzyme activity, inhibitor, fluorescence | – | 1 µM | 83.7% |
| CC(C)=CCC/C(C)=C/CC/C(C)=C/CC/C(C)=C\CC1=C(C)C(=O)c2ccccc2C1=O | IRAK1 (Homo sapiens, UniProt P51617) | enzyme activity, inhibitor | – | 10 µM | 18% |
| CN(Cc1cc(C2CC2)on1)C(=O)c1cccc(-c2ccc3c(c2)CCO3)c1 | Acetyl-coenzyme A synthetase 2 (ACS2, Candida albicans, UniProt Q8NJN3) | enzyme activity | – | concentration not given | no inhibition |
| O=C(c1cccc(S(=O)(=O)N2CCOCC2)c1)N1CCOCC1 | Ectonucleoside triphosphate diphosphohydrolase 1 | enzyme activity, inhibitor, absorbance | – | 100 µM | 19% |
| COc1cc(C(=O)NS(=O)(=O)c2ccc(C(F)(F)F)cc2)ccc1Cc1cn(C)c2ccc(NC(=O)OC3CCCC3)cc12 | Tumor necrosis factor receptor superfamily member 1A (Homo sapiens, UniProt P19438) | NF-κB reporter gene, luciferase reporter | HEK293 cells | up to 250 nM, added: TNF 10 ng/mL | 35 to 42% |

Some of these lines once more:
| Structure (SMILES) | target | test | test system | conditions | inhibition |
| --- | --- | --- | --- | --- | --- |
| O=C(c1cccc(S(=O)(=O)N2CCOCC2)c1)N1CCOCC1 | Ectonucleoside triphosphate diphosphohydrolase 1 | enzyme activity, inhibitor, absorbance | – | 100 µM | 19% |
| OC[C@H]1O[C@@H](Sc2ccccc2)[C@H](O)[C@@H](O)[C@@H]1O | SLC5A2 (Homo sapiens, UniProt P31639) | transporter uptake, inhibitor, radiometric | CHO | 10 µM | 66.7% |
